# Measurements gathered from unrelated publications.
# Each numbered part is a random draw from the data of one study; scales do not carry over between parts. Substitutions count along the parent as printed.

# Study 1
# Target: ABI1, truncated, D143A, DHFR fusion (Arabidopsis thaliana)
# Method: DHFR PCA, deep sequencing
# Sample: yeast
# Notes: methotrexate growth selection, single substitutions
# Added: (+)-ABA 0.0091 µM
# Relative to: wild-type fitted maximum
# Reading: higher = stronger binding
# Starting sequence: PYL1, truncated, DHFR fusion (Arabidopsis thaliana); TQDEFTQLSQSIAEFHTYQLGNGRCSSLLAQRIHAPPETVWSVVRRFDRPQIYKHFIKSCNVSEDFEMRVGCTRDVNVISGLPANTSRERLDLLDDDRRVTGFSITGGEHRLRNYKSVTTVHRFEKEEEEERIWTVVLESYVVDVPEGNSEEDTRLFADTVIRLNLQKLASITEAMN
Variant,relative binding score [%]
Y18F,-1.21
S150A,22.5
S42G,17.1
P50N,-3.69
S11E,44.3
V76H,-5.11
D144W,-1.87
S59A,13.8
V137L,0.303
L28D,2.24
E4T,12.4
S150Q,7.31
F124W,33.2
G102K,-1.7
V142P,-2.23
Q19Y,3.9
E67D,29.6
C60Q,-0.69
T173P,-1.47
D95Y,-10.4
R155H,-3.31
E125A,46.2
V137M,0.0313
E4H,6.6
N149C,60.2

# Study 2
# Target: FOSL2, bZIP domain (human)
# Method: DHFR protein complementation
# Sample: yeast
# Notes: single substitutions, most at no-binding floor
# Relative to: wild-type JUN-FOS pair
# Reading: higher = stronger binding
# Starting sequence: JUN, bZIP domain (human); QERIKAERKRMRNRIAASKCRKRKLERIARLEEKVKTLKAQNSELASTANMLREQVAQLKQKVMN; partner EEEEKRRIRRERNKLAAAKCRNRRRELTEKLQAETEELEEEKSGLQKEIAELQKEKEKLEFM
Variant,binding fitness
E44K,0.0192 natural log
L38R,-0.987 natural log
M51Q,0.116 natural log
E44G,-0.0913 natural log
T48F,0.0465 natural log
E54V,-0.147 natural log
E54H,-0.0288 natural log
V35Q,-0.385 natural log
M51F,0.0403 natural log
K34L,0.0684 natural log
L59W,-1.11 natural log
A57T,-0.0602 natural log
L45P,-1.44 natural log
A29T,0.0472 natural log
E33F,-0.175 natural log

# Study 3
# Target: Sal-like protein 4, full length isoform B (SALL4, Homo sapiens, UniProt Q9UJQ4-2, residues 1-616)
# Method: universal PBM
# Form: double-stranded DNA, one strand shown
# Sample: in vitro
# Concentration: not given
# Notes: 8-mer, flanks averaged, mean of replicates
# Reading: higher = stronger binding
# Residues (chain): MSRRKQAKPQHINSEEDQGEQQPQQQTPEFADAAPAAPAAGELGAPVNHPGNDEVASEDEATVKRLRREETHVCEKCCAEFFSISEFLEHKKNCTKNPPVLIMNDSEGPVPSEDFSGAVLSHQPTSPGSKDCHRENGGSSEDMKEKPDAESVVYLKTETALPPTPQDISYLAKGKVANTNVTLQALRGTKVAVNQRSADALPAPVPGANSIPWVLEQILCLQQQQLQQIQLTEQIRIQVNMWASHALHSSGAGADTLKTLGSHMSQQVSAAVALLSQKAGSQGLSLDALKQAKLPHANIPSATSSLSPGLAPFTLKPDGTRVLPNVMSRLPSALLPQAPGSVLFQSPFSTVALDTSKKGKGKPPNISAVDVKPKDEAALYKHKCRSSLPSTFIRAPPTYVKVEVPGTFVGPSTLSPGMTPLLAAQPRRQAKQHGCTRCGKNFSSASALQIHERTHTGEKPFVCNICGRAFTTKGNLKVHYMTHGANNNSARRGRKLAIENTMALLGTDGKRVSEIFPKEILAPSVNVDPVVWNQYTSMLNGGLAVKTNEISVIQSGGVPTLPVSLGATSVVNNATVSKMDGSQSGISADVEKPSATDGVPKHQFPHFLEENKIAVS
Sequence,E-score
AAAAATGG,0.259
CACCCGGA,-0.285
CCTTGGGA,-0.165
CCAATTGG,0.14
ACGCACTC,-0.0774
TGGGGACA,-0.0892
CACCCGCC,-0.21
ATACCTAG,0.14
AACGACCT,-0.125
ATTCAGGG,-0.0818
TCCGAGGA,-0.308
AATCAAAT,0.296
CTCCCACC,-0.223
ATTTACAC,0.166
CCTGCGGC,-0.389
CAGGTGGA,-0.22
AGCGGACT,-0.165
GATATTCA,0.203
ACCGACGT,-0.125
CCCATAGG,-0.0378
AGTACAGC,-0.115
AACCGGAC,-0.145
CCGAGCAC,-0.174

# Study 4
# Target: CCNB3, cyclin fold, Cln2 fusion (human)
# Method: yeast growth competition, sequencing
# Sample: yeast
# Notes: weak parent motif
# Relative to: not given
# Reading: higher = stronger binding
# Starting sequence: PKMYT1 docking peptide (human); SFEPRNLLSLFED; partner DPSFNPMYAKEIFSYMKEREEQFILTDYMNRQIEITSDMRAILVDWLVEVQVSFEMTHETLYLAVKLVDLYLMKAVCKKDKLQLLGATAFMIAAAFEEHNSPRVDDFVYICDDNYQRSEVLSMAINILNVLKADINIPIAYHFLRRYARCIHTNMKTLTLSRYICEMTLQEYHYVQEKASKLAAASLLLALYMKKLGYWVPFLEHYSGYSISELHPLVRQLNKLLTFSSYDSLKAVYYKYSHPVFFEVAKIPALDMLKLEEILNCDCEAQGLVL
Variant,normalised enrichment score
SFEPRNLLSLFES [D13S],0.174
SFEPRNLLGLFED [S9G],0.365
SFEPRNLLSIFED [L10I],1.03
SFEPRNLASLFED [L8A],0.45
RFEPRNLLSLFED [S1R],0.271
SFEPNNLLSLFED [R5N],0.286
SFEYRNLLSLFED [P4Y],0.318
SFEPRNLLSLFID [E12I],0.621
SFEPRNLLSLFTD [E12T],0.144
SFEPRNLTSLFED [L8T],0.571
SFEPRNLLSLCED [F11C],-0.119
SAEPRNLLSLFED [F2A],0.521
SFVPRNLLSLFED [E3V],0.514
SFEPRKLLSLFED [N6K],0.485
SFEPRILLSLFED [N6I],0.663
SFEPRNLLSLFEV [D13V],0.867
YFEPRNLLSLFED [S1Y],-0.126
SFEPRNLLSWFED [L10W],0.602
VFEPRNLLSLFED [S1V],0.784
SREPRNLLSLFED [F2R],0.269
SFEPRNLLSMFED [L10M],0.0159
SFEPRNLLSGFED [L10G],0.652
SFEPRNLLSLFGD [E12G],0.457
SFEPRNLLSLFEY [D13Y],0.443
SYEPRNLLSLFED [F2Y],0.0399
